Published values of several laboratories.
TDP1: Tyrosyl-DNA phosphodiesterase 1 (TDP1, Homo sapiens, UniProt Q9NUW8)
Chain of UniProt Q9NUW8 (whole entry, looked up): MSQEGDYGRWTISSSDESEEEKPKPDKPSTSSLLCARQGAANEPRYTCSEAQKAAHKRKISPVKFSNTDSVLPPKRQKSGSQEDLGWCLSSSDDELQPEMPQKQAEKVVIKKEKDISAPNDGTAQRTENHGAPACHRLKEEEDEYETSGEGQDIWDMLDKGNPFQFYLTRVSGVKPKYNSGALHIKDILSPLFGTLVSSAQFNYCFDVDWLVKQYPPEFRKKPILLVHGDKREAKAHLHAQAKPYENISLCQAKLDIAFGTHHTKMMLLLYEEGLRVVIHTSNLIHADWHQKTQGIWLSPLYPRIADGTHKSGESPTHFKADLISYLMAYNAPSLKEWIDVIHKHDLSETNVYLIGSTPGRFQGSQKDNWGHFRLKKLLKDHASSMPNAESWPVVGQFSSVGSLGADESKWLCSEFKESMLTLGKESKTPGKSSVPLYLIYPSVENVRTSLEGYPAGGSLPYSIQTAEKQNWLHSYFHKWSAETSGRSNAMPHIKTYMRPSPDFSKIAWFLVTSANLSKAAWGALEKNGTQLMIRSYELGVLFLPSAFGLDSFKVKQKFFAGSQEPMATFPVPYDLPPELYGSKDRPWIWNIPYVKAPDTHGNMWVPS
NEK5: Serine/threonine-protein kinase Nek5 (NEK5, Homo sapiens, UniProt Q6P3R8)

Structure (SMILES)	target	assay	conditions	scale	quantity	value
N#Cc1cccc(-n2cccc2C=NOCc2ccc(-c3nc4cc(-c5ccccc5)ccn4c3Nc3ccc(C(=O)O)cc3)cc2)c1	TDP1	enzyme activity, inhibitor	100 µM, unpurified compound	–	inhibition	39.8%
Nc1ncc2c(n1)-c1c([nH]c3ccc(C4=CCOCC4)cc13)CCC2	NEK5	binding, competition with immobilised ligand	1 µM	–	remaining binding	100%
Cc1ccc(-c2c(/C=C(\C#N)C(=O)NC(C)C)n(CCCO)c3ncnc(N)c23)cc1	NEK5	cell-free assay, competition with immobilised ligand	1 µM	–	remaining binding	100%
Cc1cnc2nc1Nc1cccc(c1)COC/C=C/COCc1cc(ccc1OCCN1CCOCC1)N2	NEK5	binding	0.1 µM	–	remaining binding	85%
COc1c(Cl)cccc1Nc1c(-c2ccncc2C#C[C@@]2(C)CCCN2C(=O)/C=C/CN(C)C)[nH]c2c1C(=O)NCC2	NEK5	binding, competition with immobilised ligand	3 µM	–	remaining binding	95%
CC(C)=CC1OC(C)(C)C2C=C3C(=O)C(Cl)=CC(O)C3C3C(O)C4OC4C(=O)C132 (centres unmarked)	NEK5	cell-free assay, competition with immobilised ligand	10 µM	–	remaining binding	75%
C=CC(=O)N1CCCC(n2c(=O)c3ncccc3n(Cc3ccc(Oc4ccccc4)cc3)c2=O)C1 (centres unmarked)	NEK5	cell-free assay, competition with immobilised ligand	1 µM	–	remaining binding	89%
Nc1ncc(-c2cc(-c3cnn(CC(F)(F)F)c3)ncc2F)nc1C(=O)NC1CNCC(F)C1 (centres unmarked)	NEK5	enzyme activity	1 µM	reference: DMSO control	remaining activity	74.4%
C=CC(=O)N1CCc2ccc(-n3c(=O)ccc4cnc5ccc(-c6cnn(C)c6)cc5c43)cc21	NEK5	KINOMEscan	1 µM	reference: DMSO control	remaining binding	100%
O=C(Cc1ccc(OCc2ccccc2)cc1)NC1(C(=O)O)CCN(C(=O)c2ccc(-c3cccc(Cl)c3)cc2)CC1	NEK5	enzyme activity, inhibitor	10 µM	–	activity vs control	103%
CNC(=O)C1CCN(c2cc(C)c(F)cc2NC(=O)c2ccc(-c3cc(O)ccc3C)c(C)c2)CC1	NEK5	binding, competition with immobilised ligand	1 µM	–	remaining binding	100%
COc1cc(Nc2nccc(-c3cnn4nc(OC)ccc34)n2)cc(C(F)(F)F)c1	NEK5	binding, competition with immobilised ligand	1 µM	–	remaining binding	57%
CCn1cc(C(=O)O)c(=O)c2c(N)c(F)c(NC3CCCCC3)cc21	NEK5	kinase activity	0.1 µM, together with: ATP at Km	–	inhibition	37.2%
O=C(O)c1ccc(Nc2c(-c3ccccc3)nc3ccc(CON=Cc4cccc(N5CCOCC5)c4)cn23)cc1 (mixture of isomers)	TDP1	enzyme activity, inhibitor	100 µM, unpurified compound	–	inhibition	72.1%
COc1cc(Nc2nc(C)cc(-c3cnn4nc(OC)ccc34)n2)cc(C(F)(F)F)c1	NEK5	inhibitor	1 µM	reference: control	remaining activity	96%
CCN1CCN(Cc2ccc(C(=O)Nc3ccc(C)c(NCc4cnc5[nH]ccc5c4OC)c3)cc2C(F)(F)F)CC1	NEK5	binding, competition with immobilised ligand	1 µM	–	remaining binding	48%
CNC1C[S+]2CC[S+]3CC[S+](C1)[Ru-4]321([N]=C=S)[n]2c3ccc(OC)cc3c3c4c(c5cc(F)c[n+]1c5c32)C(=O)NC4=O (centres unmarked)	NEK5	KinomeScan	0.1 µM	reference: untreated	remaining binding	81%

A few entries again:
Structure (SMILES)	target	assay	conditions	scale	quantity	value
CNC(=O)C1CCN(c2cc(C)c(F)cc2NC(=O)c2ccc(-c3cc(O)ccc3C)c(C)c2)CC1	NEK5	binding, competition with immobilised ligand	1 µM	–	remaining binding	100%
COc1cc(Nc2nccc(-c3cnn4nc(OC)ccc34)n2)cc(C(F)(F)F)c1	NEK5	binding, competition with immobilised ligand	1 µM	–	remaining binding	57%
